# Experimental data from different studies.
# Parts stem from different laboratories: compare values within a part only.

# Sample 1
# Target: Interferon regulatory factor 3, full length, phosphomimetic (IRF3, Homo sapiens, UniProt Q14653, residues 1-427, S386D/S396D/S398D/S402D/T404D/S405D)
# Technique: protein-binding microarray
# Molecule type: double-stranded DNA, one strand shown
# Medium: in vitro
# Tested at: 2540 nM top
# Setting: 60-bp whole probe
# Together with: salmon DNA 0.4 mg/ml
# Relative to: random background probes
# Reading: higher = stronger binding
# Shared flanks, not repeated: GCCTAGCAC … GTGCTAGGTCTTGATTCGCTTGACGCTGCTG
# Target sequence (chain): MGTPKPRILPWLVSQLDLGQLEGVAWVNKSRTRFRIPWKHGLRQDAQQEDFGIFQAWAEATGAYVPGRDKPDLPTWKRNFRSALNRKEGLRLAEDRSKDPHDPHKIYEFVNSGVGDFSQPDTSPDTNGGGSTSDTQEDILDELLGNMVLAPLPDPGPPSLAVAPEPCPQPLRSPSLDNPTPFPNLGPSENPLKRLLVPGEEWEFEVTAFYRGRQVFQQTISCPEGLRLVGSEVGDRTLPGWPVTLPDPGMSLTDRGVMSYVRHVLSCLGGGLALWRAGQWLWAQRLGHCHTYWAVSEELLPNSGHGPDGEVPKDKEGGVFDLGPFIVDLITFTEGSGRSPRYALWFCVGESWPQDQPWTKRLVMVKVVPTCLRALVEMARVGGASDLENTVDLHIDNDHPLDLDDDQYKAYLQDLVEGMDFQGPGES
Sequence,fitted relative affinity [z-score]
TTAGGTCTCCTTTTCCCTTA,4.92
TTAGATCTCAGACTTGATTA,0.0844
TTTCACACTGTCCAGCAGGT,3.4
TTAGCTTTCCTTCTCCTTTA,7.49
GACGATTTCAAACTGGAGAC,0.768

# Sample 2
# Target: Histone acetyltransferase KAT6A, both winged helices, GST fusion (KAT6A, Homo sapiens, UniProt Q92794, residues 1-181)
# Technique: protein binding microarray
# Molecule type: double-stranded DNA, one strand shown
# Medium: in vitro
# Tested at: not given
# Setting: 8-mer, flanks averaged, mean of 2 arrays, mostly near background
# Relative to: not given
# Reading: higher = stronger binding
# Construct (chain): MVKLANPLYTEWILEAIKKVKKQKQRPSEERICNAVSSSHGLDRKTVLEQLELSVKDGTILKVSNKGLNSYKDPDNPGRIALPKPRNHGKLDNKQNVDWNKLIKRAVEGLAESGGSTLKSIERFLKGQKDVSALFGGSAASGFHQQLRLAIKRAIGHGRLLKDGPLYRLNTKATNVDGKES
Sequence,E-score
ACTCTCGC,-0.0172
CGCAGCTA,0.0506
AGCAGTAG,-0.245
GCAGGCCA,-0.0808
GATGCTGA,-0.136

# Sample 3
# Target: Ras GTPase-activating protein-binding protein 1, RRM domain (G3BP1, Homo sapiens, UniProt Q13283)
# Chain of UniProt Q13283 (whole entry, looked up): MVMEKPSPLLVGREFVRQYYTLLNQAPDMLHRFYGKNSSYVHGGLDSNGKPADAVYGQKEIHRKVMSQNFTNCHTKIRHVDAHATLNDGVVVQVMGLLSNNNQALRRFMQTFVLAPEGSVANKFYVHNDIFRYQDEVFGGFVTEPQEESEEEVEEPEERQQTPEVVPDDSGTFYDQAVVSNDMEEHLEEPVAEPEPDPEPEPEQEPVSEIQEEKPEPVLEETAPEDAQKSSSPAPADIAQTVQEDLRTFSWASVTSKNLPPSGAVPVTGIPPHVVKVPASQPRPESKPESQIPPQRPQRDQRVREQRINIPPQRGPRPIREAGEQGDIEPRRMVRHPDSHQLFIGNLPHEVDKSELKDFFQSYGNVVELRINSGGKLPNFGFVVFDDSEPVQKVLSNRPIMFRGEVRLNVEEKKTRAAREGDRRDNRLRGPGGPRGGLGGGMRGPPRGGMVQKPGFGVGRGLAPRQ
# Technique: RNA Bind-n-Seq
# Molecule type: RNA
# Medium: in vitro
# Tested at: 1 µM
# Setting: whole 134-nt RNA, ends assumed
# Together with: 150 mM KCl
# Relative to: input library
# Reading: higher = stronger binding
# Shared flanks, not repeated: GGGAGUUCUACAGUCCGACGAUC … UGGAAUUCUCGGGUGUCAAGG
Sequence,log2 enrichment
CUCAAGUCCUGUGCUACACAUCGUAUGUACCGAAUCGGGCCGGGCCGGCCGGGAAAGUAUUAUGUUACGCCGUUCGGAUCUGCACUUCCA,-0.409
CCUGUGCUACACAUCGUAUGUACCGAAUCGGCCCCCCCGGCCCCCCCGGCCCCCCCGGGGAAAGUAUUAUGUUACGCCGUUCGGAUCUGC,-0.816
GCAGGAAGUAAAAACAAAUGGAAAUGCUUCGGUUAGUGGCAGGGGUGGGGGUUGCUAAGGAAAGGGUGGGAUGGGAGUGGGUAAAGAGUU,1.08
GUCCUGUGCUACACAUCGUAUGUACCGAAUCGGGGAGGGGUUUGGGGAAAAAAAGGGGAAAGUAUUAUGUUACGCCGUUCGGAUCUGCAC,0.98
CUCAAGUCCUGUGCUACACAUCGUAUGUACCGAAUCGGAAGGGAAGGGAAGGGGAAAGUAUUAUGUUACGCCGUUCGGAUCUGCACUUCC,-0.0253

# Other studies, line by line
Molecule,target,assay,system,setting,scale,quantity,result
"PhoQ, residues 284 288 289 292 302 303 AANNSF","PhoP, residues 12 14 15 18 19 NIMAP (Escherichia coli, UniProt P23836)","Sort-seq, refers to: YFP reporter",E. coli,"PhoQ-PhoP variant library, together with: 10 µM Mg2+","relative to: high Mg2+ state, higher = stronger signaling",fold induction,0.884
